Measured values from different studies.
A part holds a random share of what one study measured. Positions count from the first letter of the parent shown.

Sample 1
Target: UBE2T UBC core domain (UniProt Q9NPD8)
Method: yeast two-hybrid
Matrix: yeast
Notes: mostly zero background
Reference: not given
Reading: higher = stronger interaction
B1: TRIM41 RING domain (UniProt Q8WV44); chain PVQTLQEEAVCAICLDYFTDPVSIGCGHNFCRVCVTQLWGGEDEEDRDELDREEEEEDGEEE
B2: ARIH2 RING domain (UniProt O95376); chain HVPTSHPPHHCAVCMQFVRKENLLSLACQHQFCRSCWEQHCSVLVKDGVGVGVSCMAQDCPLRTPEDFVF
B3: RING1 RING domain (UniProt Q06587); chain SPRSLHSELMCPICLDMLKNTMTTKECLHRFCSDCIVTALRSGNKECPTCRKKLVSKRSLR
B4: TRIM11 RING domain (UniProt Q96F44); chain LSTNLQEEATCAICLDYFTDPVMTDCGHNFCRECIRRCWGQPEGPYACPECRELSPQRNLRP
B5: BFAR RING domain (UniProt Q9NZS9); chain GPQISVSEFSCHCCYDILVNPTTLNCGHSFCRHCLALWWASSKKTECPECREKWEGFPKVS
B6: VPS8 RING domain (UniProt Q8N3P4); chain TRGLNPKQDYCSICLQQYKRRQEMADEIIVFSCGHLYHSFCLQNKECTVEFEGQTRWTCYKCSSSNKVGKLSE
B7: RNF103 RING domain (UniProt O00237); chain WPADMLHCTECVVCLENFENGCLLMGLPCGHVFHQNCIVMWLAGGRHCCPVCRWPSYKKKQPY
B8: RNF186 RING domain (UniProt Q9NXI6); chain HSGSTECDLECLVCREPYSCPRLPKLLACQHAFCAICLKLLLCVQDNTWSITCPLCRKVTAVPGGLI
Residues (chain): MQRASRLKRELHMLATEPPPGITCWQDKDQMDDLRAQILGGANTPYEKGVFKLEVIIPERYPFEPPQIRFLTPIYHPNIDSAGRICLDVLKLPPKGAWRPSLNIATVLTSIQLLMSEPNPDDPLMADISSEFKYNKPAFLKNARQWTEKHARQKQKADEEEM
Sequence	lacZ reporter activity
B1 (TRIM41 RING domain)	0
B2 (ARIH2 RING domain)	0
B3 (RING1 RING domain)	0
ASPKIFQKTKCSICNSALELPSVHFLCGHSFHQHCFESYSESDADCPTCLPENRKVMDMI (VPS11 RING domain (UniProt Q9H270))	0
B4 (TRIM11 RING domain)	0
B5 (BFAR RING domain)	0
FDPPLESKYECPICLMALREAVQTPCGHRFCKACIIKSIRDAGHKCPVDNEILLENQLFP (TRAF6 RING domain (UniProt Q9Y4K3))	0
LEALSSDFLACKICLEQLRAPKTLPCLHTYCQDCLAQLADGGRVRCPECRETVPVPPEGV (TRIM56 RING domain (UniProt Q9BRZ2))	0
B6 (VPS8 RING domain)	0
B7 (RNF103 RING domain)	0
B8 (RNF186 RING domain)	0

Sample 2
Target: Sal-like protein 4, full length isoform A (SALL4, Homo sapiens, UniProt Q9UJQ4, residues 1-1053)
UniProt Q9UJQ4, sequence (whole entry, looked up): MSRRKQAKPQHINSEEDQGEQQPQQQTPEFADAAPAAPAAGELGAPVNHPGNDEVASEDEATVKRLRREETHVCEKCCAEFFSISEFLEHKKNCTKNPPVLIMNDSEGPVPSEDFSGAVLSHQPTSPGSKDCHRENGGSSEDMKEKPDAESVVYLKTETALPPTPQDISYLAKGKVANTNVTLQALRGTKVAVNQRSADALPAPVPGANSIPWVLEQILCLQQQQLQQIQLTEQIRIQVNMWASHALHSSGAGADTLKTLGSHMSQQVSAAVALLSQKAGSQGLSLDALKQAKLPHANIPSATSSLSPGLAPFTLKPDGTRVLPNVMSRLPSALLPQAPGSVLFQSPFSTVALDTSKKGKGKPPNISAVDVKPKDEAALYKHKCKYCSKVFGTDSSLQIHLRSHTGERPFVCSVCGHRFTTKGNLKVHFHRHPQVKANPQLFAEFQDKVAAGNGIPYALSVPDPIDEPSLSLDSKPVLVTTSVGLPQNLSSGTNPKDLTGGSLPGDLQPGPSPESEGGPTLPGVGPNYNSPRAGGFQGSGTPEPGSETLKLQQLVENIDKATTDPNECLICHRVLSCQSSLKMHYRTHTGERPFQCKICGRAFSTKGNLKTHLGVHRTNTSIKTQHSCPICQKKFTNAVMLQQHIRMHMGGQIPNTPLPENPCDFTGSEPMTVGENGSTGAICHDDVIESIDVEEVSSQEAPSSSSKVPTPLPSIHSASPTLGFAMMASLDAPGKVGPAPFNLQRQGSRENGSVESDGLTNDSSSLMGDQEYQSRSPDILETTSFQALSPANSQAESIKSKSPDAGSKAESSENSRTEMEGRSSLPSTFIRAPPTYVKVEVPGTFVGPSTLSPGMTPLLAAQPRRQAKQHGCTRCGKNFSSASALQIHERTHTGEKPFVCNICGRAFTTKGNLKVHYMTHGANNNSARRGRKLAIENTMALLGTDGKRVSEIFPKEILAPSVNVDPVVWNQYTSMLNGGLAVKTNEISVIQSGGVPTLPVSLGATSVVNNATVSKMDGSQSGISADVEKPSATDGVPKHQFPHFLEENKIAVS
Method: universal PBM
Form: double-stranded DNA, one strand shown
Matrix: in vitro
Concentration: 600 nM
Notes: 8-mer, flanks averaged, mean of replicates
Reading: higher = stronger binding
Oligonucleotide	E-score
CACCTGGA	-0.156
ACCACTGA	-0.0752
GGCACATA	0.101
AAATCAAG	0.183
AAACCGAA	0.0583
GAAAGGCC	-0.214
ACGTAGCT	-0.00434
GTAGTACA	-0.00255
GAGGGAAA	0.0376
CTTCGATA	0.221
GCACACCC	-0.302
GGCCCTCA	-0.344
AAGTGGCA	-0.0608
CCCGACCC	-0.415
CCAAGTTC	-0.147
CGCACGGC	-0.361
AAGACAAT	0.276
AAGGCGGA	-0.149
CAAAGACA	0.0981

Sample 3
Target: ABI1, truncated, D143A, DHFR fusion (Arabidopsis thaliana)
Method: DHFR PCA, deep sequencing
Matrix: yeast
Notes: methotrexate growth selection, single substitutions
With: (+)-ABA 0.0091 µM
Reference: wild-type fitted maximum
Reading: higher = stronger binding
Parent: PYL1, truncated, DHFR fusion (Arabidopsis thaliana); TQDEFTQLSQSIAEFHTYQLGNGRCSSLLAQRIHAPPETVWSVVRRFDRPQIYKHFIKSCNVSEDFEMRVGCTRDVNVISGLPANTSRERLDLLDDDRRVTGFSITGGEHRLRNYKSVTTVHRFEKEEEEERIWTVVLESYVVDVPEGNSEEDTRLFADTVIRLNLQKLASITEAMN; partner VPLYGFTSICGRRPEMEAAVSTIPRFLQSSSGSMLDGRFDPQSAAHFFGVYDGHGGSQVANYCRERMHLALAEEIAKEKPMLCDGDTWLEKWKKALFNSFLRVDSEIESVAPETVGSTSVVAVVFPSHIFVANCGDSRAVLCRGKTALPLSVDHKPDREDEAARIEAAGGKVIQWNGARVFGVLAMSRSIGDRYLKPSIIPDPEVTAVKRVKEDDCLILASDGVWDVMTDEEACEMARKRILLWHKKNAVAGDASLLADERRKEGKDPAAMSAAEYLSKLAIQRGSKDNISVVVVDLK
Variant	relative binding score [%]
M176D	8.65
A30P	1.35
V137G	2.04
S80Y	68.2
I79Y	24.8
A175Q	28.6
V70P	31.8
D65Q	16.9
T173C	65.5
H55W	43
E174K	5.29
S42K	11.1
T154A	3.58
T39L	53.1
V121A	10.6
V161W	70

Sample 4
Target: CCNF, cyclin fold, Cln2 fusion (human)
Method: yeast growth competition, sequencing
Matrix: yeast
Notes: strong parent motif
Reference: not given
Reading: higher = stronger binding
Parent: ORC1 docking peptide (human); PRARKRLELGNLG
Variant	normalised enrichment score
L12N	3.68
G13N	3.31
L9V	1.74
R6P	0.935
R6C	1.32
L9C	1.78
R2T	4.67
K5L	1.23
K5W	1.33
L9S	1.71
P1I	3.64
L9I	2.08
R6V	0.847
L7P	-0.274
R6A	0.395
G10R	1.81
E8Q	3.08
R2E	2.02
L12S	3.45
L9T	0.878

Sample 5
Target: RNA binding protein fox-1 homolog 2, RRM domain, GST-SBP tag (RBFOX2, Homo sapiens, UniProt O43251-10, residues 100-194)
Method: RNA Bind-n-Seq
Form: RNA
Matrix: in vitro
Concentration: 365 nM
Notes: natural RNA segment, single round, ends assumed
Reference: no-protein control
Reading: higher = stronger binding
All sequences stand within: GGGAGUUCUACAGUCCGACGAUC … UGGAAUUCUCGGGUGCCAA
Target sequence (chain): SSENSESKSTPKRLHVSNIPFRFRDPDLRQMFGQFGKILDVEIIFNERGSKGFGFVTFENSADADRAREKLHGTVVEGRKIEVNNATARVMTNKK
Oligonucleotide	RBNS enrichment (R)
CCAGGAUGCCCAAACAGCCGCACAGGUGUCCUGUGCUUCCUGUGAGACUUCCUGGGGGAAAUAUACAAACUAAUAUAUUUUUUAAUGUUUACGUCAUUUACACUGCUGCU	0.408
GGAAGGAUCAUCAACCAUCUAAUCAAAAUGGAUCUGGAUUAUUACUCUGUAAAAUUCACAGCAGUAAAUAUUGUUUUGUUGAAUGUAUUAACAUCUUAUGGUCUGAAAAU	0.362
ACAUGACAGUUAGCUCCUCUGACCUGUCUUUCUAGGUAACUGGAAAUGAACUUCAGGCUUGAUACAGAUCUUCUCCCUGUUGGUAUUACAUAUAUAGAGAUAAUUCUCAA	0.301
UCCUUCCAGAGCUGUGGAAGAGAUGUUUGUGACCCCUCCCUUGGACUCUUGGGGGCCAAUCCCACUCUUGAGUGCAAUGGUUGCAUUUAGAAUCAGCUAGCUAGCCAGGG	0.486
AAAGGAGGAAAGGGGUGGAAAAAAACCGACUUUCUGCAUUUAACUACAAAAAAAGUUUAUGUUUAGUUUGGUAGAGGUGUUAUGUAUAAUGCUUUGUUAAAGAACCCCCU	0.303
UAUGAAUAAUGCUCAUUUUCACAGUCAGAAUAGCUUUAAAAUAUGGUUGAAUUUGAUACACACAGGAAGUUUUCUUGAAGAACAAUCCUUUCGCUUUUCUUUUUUCUUGA	0.812
CAGGGUUUAGUCCUGGGGCUGGCACUCGUUGUGACUUACACAGAGCAAAAUUGUGCUAAAGGCUUUUCUACUCUGAGAUCUCAAUGCGAAAUGAAAACUCAGGCAGUUUA	0.586
AUUCAGCAAGGCGCUAACUUGCUUAAAUGUGAAUUACUAACUUCUAAAACUGUAAUUUGAUUCACAUCUUUUCAAAUGGAGUUGGAGUUGAUUCAUAUUACAAUAUUUGU	0.285
UCCCUAACAUUUUUUUCCCCAAACUUGGGUCUGGAUGUAGAUUCUCACCCUAUGGCCUGAGUCCAAUCCCUAGAACUGUGGUUUCCUCCAGUGUGACUUGUCCUGAUCAG	1.02
AGUACUGUCCUAACCCUGGCUUUUCAGUUAAUGUUUCCAUCUGUGAAGCUUGGAAACACAGCUGGGAAGUUUGUAUUCAUUUACUUAGUAGAUAUGUGCAGAGCUCCUUG	0.219
CCCACAGCACAUGACACCGACAGCUGCCCAGCCUGUUCACAUGCUGGGGACCAGCACAGCACCUGAAGCCAUGUGGGACAGUUGGGCUUUGUUCAUUCUAGCCACGGGGA	0.338
CUUGGUCCCCAGUGAGCUGAGGUGUGUACAAGGCCACCGAGUCACCUGCCCUCUCUCCGGAUCAUUUUUCUAGAGCAAGCAGGCCAGACUUCAUCCUGCCUUUGUCUUCG	0.236

For quick reference, copied from above (sample 3):
Variant	relative binding score [%]
V70P	31.8
D65Q	16.9
T173C	65.5
H55W	43
E174K	5.29
S42K	11.1
T154A	3.58
T39L	53.1
V121A	10.6
V161W	70
